Measurements from different studies.
Parts stem from different laboratories: compare values within a part only.

Study 1
Target: Ras GTPase-activating protein-binding protein 1, full length (G3BP1, Homo sapiens, UniProt Q13283)
Chain of UniProt Q13283 (whole entry, looked up): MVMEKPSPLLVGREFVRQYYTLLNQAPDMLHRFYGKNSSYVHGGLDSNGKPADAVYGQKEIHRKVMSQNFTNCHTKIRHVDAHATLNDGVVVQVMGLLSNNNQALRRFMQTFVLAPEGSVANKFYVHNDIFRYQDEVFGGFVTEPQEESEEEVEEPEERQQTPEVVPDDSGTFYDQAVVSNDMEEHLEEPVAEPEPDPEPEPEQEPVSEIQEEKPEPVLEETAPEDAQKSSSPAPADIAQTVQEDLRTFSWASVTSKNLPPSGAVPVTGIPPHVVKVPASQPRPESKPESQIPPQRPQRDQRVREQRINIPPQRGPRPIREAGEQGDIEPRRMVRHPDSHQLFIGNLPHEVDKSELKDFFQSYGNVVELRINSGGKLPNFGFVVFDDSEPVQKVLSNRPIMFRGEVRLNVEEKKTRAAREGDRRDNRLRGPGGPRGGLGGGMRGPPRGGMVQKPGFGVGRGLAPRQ
Method: RNA Bind-n-Seq
Form: RNA
Sample: in vitro
Concentration: 200 nM
Notes: whole 134-nt RNA, ends assumed
Together with: 150 mM LiCl
Baseline: input library
Reading: higher = stronger binding
Library: 7-deaza-guanosine replaces G
Sequence	log2 enrichment
GGGAGUUCUACAGUCCGACGAUCUAACUUUAGAGGAGGAUCUGAUGGAUAUGGCAGUGGACGUGGAUUUGGGGAUGGCUAUAAUGGGUAUGGAGGAGGACCUGGACGUGGCAAUGGAAUUCUCGGGUGUCAAGG	-0.16
GGGAGUUCUACAGUCCGACGAUCGCAGGAAGUAAAAACAAAUGGAAAUGCUUCGGAUAGUGGCAGGGAUGGGGGUUGCUAAGGAAAGGGUGGGAUGGGAGUGGGUAAAGAGUUUGGAAUUCUCGGGUGUCAAGG	0.32
GGGAGUUCUACAGUCCGACGAUCUCCUGUGCUACACAUCGUAUGUACCGAAUCGGGGUGGGGAAAAAAAGGGGAAAAAGGGGAAAGUAUUAUGUUACGCCGUUCGGAUCUGCAUGGAAUUCUCGGGUGUCAAGG	-0.321

Study 2
Target: Centromere-binding protein 1, full length, N-terminal tag (CBF1, Saccharomyces cerevisiae, UniProt P17106, residues 1-351)
Chain of UniProt P17106 (whole entry, looked up): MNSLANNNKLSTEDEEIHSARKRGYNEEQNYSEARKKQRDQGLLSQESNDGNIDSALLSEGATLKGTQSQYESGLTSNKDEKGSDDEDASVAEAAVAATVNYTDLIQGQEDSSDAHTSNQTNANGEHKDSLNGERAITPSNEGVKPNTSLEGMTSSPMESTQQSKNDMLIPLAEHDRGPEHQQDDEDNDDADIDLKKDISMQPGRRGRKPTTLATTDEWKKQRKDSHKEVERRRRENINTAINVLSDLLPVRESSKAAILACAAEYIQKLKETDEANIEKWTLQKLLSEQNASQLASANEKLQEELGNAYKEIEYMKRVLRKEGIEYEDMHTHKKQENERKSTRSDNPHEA
Method: protein-binding microarray
Form: double-stranded DNA, one strand shown
Sample: in vitro
Concentration: 0.8 µM
Notes: whole 60-bp probe, no competitor
Reading: higher = stronger binding
Sequence	fluorescence intensity
GAATTAGCTTCTTTTCGGGTGATGTCACTTAAATAGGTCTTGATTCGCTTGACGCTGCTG	544 a.u.
GAAGATTCGTTAAAATACGTGATGGTGTTATTTTAGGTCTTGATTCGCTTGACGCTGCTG	583 a.u.
GAATAAACAAAGTTTCATGTGAATTTGCTTAGTTAGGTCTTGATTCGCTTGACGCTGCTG	504 a.u.
CCTAACTACTATAATCACCTGAGATAGCTTCGTACAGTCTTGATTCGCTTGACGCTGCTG	683 a.u.
CTATTCCTCTTTTAGCTCGTCAGCTCTGGTTGGTTCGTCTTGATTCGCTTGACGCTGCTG	516 a.u.

Study 3
Target: Sal-like protein 4, full length isoform A (SALL4, Homo sapiens, UniProt Q9UJQ4, residues 1-1053)
Chain of UniProt Q9UJQ4 (whole entry, looked up): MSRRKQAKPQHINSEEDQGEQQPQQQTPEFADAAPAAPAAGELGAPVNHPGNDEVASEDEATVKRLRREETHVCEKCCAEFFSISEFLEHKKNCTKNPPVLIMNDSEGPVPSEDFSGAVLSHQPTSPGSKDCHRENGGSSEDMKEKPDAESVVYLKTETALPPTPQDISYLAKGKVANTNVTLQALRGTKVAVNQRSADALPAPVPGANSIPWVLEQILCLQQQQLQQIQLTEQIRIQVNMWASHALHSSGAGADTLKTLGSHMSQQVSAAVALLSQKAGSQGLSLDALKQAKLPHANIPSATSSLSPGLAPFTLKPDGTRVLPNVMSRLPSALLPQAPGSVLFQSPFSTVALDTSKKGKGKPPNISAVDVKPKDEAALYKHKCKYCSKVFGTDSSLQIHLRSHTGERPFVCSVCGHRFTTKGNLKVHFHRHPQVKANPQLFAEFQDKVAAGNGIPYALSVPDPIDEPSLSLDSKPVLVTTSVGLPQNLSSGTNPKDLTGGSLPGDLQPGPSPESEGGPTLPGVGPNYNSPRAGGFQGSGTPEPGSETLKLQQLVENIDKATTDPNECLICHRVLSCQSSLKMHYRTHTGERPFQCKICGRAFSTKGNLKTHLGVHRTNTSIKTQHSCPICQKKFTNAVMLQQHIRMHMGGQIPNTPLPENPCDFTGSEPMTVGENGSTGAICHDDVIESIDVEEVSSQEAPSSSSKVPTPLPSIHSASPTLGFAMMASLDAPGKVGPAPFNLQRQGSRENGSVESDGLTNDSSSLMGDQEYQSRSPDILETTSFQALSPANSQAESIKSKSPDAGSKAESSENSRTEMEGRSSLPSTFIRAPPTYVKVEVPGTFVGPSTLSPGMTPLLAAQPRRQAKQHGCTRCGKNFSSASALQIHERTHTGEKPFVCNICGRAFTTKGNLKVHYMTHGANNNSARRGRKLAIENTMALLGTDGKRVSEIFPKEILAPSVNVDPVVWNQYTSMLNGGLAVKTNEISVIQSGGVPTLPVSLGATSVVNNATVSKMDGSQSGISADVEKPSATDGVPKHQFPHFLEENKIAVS
Method: universal PBM
Form: double-stranded DNA, one strand shown
Sample: in vitro
Concentration: 600 nM
Notes: 8-mer, flanks averaged, mean of replicates
Reading: higher = stronger binding
Sequence	E-score
TACCCCTA	-0.0722
ACCGTAAT	0.138
CGAGCTCG	-0.245
GCATCTTA	0.135
GAAGACAA	0.153

Other studies, line by line
Substance	target	test	system	setting	scale	quantity	value
PhoQ, residues 284 288 289 292 302 303 TLASMF	PhoP, residues 12 14 15 18 19 LHTVL (Escherichia coli, UniProt P23836)	Sort-seq, item: YFP reporter	E. coli	PhoQ-PhoP variant library, together with: 10 µM Mg2+	baseline: high Mg2+ state, higher = stronger signaling	fold induction	1.41
